Published values of several laboratories.
Protocols differ between the studies behind these lines. ± gives the spread as reported.

With `N#Cc1ccc(C[C@H](NC(=O)[C@@H](N)CO)C(=O)NCC(N)=O)cc1` the pKa was 8.59 (N-terminal amino group, fluorescence pH titration; water; 20 µM, 25 °C, two-state fit).
The pKa of `O=c1[nH]c2ccccc2n1CCCN1CCC(n2c(=O)[nH]c3cc(Cl)ccc32)CC1` is reported as 7.48.
`CC1=CC(c2ccccc2)=NS(=O)(=O)N1` gave a pKa of 2.94 ± 0.1 (polymer-water distribution, UHPLC; 25 °C).
For `O=c1cc(-c2ccc(O)c(-c3c(O)cc(O)c4c(=O)cc(-c5ccc(O)cc5)oc34)c2)oc2cc(O)cc(O)c12`, the pKa was 4.57 (UV-vis pH titration; ethanol-water, 0.1 M NaCl; 25 µM, 25 °C, second pKa, o-carbonyl-phenol).
With `COc1c(N2CCNC(C)C2)c(F)cc2c(=O)c(C(=O)O)cn(C3CC3)c12` (stereo not drawn) the pKa was 6.25 (pH titration; 25 °C, carboxylic acid).
`CN1CCN(CCCN2c3ccccc3Sc3ccc(C(F)(F)F)cc32)CC1` gave a pKa of 5.03.
With `N#Cc1ccc(C[C@H](NC(=O)[C@@H](N)CC(N)=O)C(=O)NCC(N)=O)cc1` the pKa was 6.69 (N-terminal amino group, fluorescence pH titration; water; 20 µM, 25 °C, two-state fit).
The pKa of `CNS(=O)(=O)Cc1ccc2[nH]cc(CCN(C)C)c2c1` is reported as 8.93.
The pKa of `CC(C)[C@H](N)C(=O)N[C@@H](Cc1ccc(C#N)cc1)C(=O)NCC(N)=O` is reported as 7.29 (N-terminal amino group, fluorescence pH titration; water; 20 µM, 25 °C, two-state fit).
For `Nc1ncnc2c([C@@H]3O[C@H](CO)[C@@H](O)[C@H]3O)snc12`, the pKa was 4.25 (UV-vis absorption titration).
`N#Cc1ccc(C[C@H](NC(=O)CN)C(=O)NCC(N)=O)cc1` has a pKa of 7.99 (N-terminal amino group, fluorescence pH titration; water; 20 µM, 25 °C, two-state fit).
`Nc1nc2c([C@@H]3O[C@H](CO)[C@@H](O)[C@H]3O)snc2c(=O)[nH]1` gave a pKa of 9.88 (fluorescence emission vs pH).
`O=S(=O)([O-])c1cc(O)c2ccc3c(S(=O)(=O)[O-])cc(S(=O)(=O)[O-])c4ccc1c2c34.[Na+].[Na+].[Na+]` has a pKa of 7.01 (ratiometric absorbance; 70 µM).
For `Nc1nc(=O)[nH]c2c([C@@H]3O[C@H](CO)[C@@H](O)[C@H]3O)snc12`, the pKa was 2.94 (UV-vis absorption titration).
`N#Cc1ccc(C[C@H](NC(=O)[C@@H](N)CC(=O)O)C(=O)NCC(N)=O)cc1` gave a pKa of 7.7 (N-terminal amino group, fluorescence pH titration; water; 20 µM, 25 °C, two-state fit).

Repeated from above:
The pKa of `CNS(=O)(=O)Cc1ccc2[nH]cc(CCN(C)C)c2c1` is reported as 8.93.
